Published values pooled from the literature.
Compare with care: the assays were run in different laboratories. ± gives the spread as reported.
Chain of UniProt Q12809 (whole entry, looked up): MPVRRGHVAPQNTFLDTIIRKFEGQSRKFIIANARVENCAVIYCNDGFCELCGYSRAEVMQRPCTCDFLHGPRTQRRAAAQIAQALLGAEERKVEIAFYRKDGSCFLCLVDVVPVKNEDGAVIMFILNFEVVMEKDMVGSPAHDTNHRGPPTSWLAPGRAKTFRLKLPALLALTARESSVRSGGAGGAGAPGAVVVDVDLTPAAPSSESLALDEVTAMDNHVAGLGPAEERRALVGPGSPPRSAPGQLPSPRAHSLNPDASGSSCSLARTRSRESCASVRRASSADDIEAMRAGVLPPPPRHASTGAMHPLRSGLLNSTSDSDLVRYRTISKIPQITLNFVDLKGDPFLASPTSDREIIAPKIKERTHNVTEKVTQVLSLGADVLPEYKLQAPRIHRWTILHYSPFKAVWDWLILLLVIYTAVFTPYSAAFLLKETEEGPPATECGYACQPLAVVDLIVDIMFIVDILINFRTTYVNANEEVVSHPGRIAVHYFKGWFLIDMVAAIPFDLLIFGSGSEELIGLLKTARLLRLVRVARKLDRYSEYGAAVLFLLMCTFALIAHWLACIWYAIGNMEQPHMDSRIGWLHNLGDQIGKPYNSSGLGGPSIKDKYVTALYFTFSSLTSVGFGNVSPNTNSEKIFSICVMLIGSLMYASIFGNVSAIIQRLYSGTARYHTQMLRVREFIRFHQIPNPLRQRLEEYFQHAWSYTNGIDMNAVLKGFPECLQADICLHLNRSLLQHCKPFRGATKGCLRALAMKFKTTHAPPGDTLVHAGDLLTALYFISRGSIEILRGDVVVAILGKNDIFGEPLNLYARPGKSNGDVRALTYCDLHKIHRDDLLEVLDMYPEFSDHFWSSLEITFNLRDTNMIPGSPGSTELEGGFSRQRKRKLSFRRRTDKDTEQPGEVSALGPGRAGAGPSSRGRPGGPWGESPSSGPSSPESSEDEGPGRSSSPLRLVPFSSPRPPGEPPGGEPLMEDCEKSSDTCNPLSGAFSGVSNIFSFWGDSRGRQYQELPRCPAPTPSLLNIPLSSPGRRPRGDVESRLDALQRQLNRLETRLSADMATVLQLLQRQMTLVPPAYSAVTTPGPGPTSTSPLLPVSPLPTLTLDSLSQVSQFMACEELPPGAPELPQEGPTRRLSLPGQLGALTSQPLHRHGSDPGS

Molecule	target or system	test	system	conditions	scale	measurement	result
CC[C@H](C)[C@H](NC(=O)[C@H](CC(C)C)NC(=O)[C@H](Cc1c[nH]c2ccccc12)NC(=O)[C@H](CCC(N)=O)NC(=O)[C@@H](NC(=O)[C@H](Cc1ccccc1)NC(=O)[C@H](C)NC(=O)[C@H](CCCCNC(=O)COCCOCCNC(=O)COCCOCCNC(=O)CC[C@H](NC(=O)CCCCCCCCCCCCCCCCCCC(=O)O)C(=O)O)NC(=O)[C@H](CCC(N)=O)NC(=O)[C@H](C)NC(=O)[C@@H](NC(=O)[C@H](CCCCN)NC(=O)[C@H](CC(=O)O)NC(=O)[C@H](CC(C)C)NC(=O)C(C)(C)NC(=O)[C@@H](NC(=O)[C@H](CO)NC(=O)[C@H](Cc1ccc(O)cc1)NC(=O)[C@H](CC(=O)O)NC(=O)[C@H](CO)NC(=O)[C@@H](NC(=O)[C@H](Cc1ccccc1)NC(=O)[C@@H](NC(=O)CNC(=O)[C@H](CCC(=O)O)NC(=O)C(C)(C)NC(=O)[C@@H](N)Cc1ccc(O)cc1)[C@@H](C)O)[C@@H](C)O)[C@@H](C)CC)[C@@H](C)CC)C(C)C)C(=O)N[C@@H](C)C(=O)NCC(=O)NCC(=O)N1CCC[C@H]1C(=O)N[C@@H](CO)C(=O)N[C@@H](CO)C(=O)NCC(=O)N[C@@H](C)C(=O)N1CCC[C@H]1C(=O)N1CCC[C@H]1C(=O)N1CCC[C@H]1C(=O)N[C@@H](CO)C(N)=O			healthy subjects, single ascending dose	2.5 mg, titre increase ≥4-fold		treatment-boosted ADA positive subjects	16.7%
CC(C)C(=O)OC[C@H]1O[C@@H](n2ccc(NO)nc2=O)[C@H](O)[C@@H]1O			rat plasma	100 µM, 1 h, no CES inhibitor		remaining compound	0%
CC(C)C[C@H](NC(=O)[C@H](CC(=O)O)NC(=O)CNC(=O)[C@H](CCCNC(=N)N)NC(=O)[C@H](CC(C)C)NC(=O)[C@H](CC(N)=O)NC(=O)[C@@H]1CCCN1C(=O)[C@@H](NC(=O)[C@H](C)NC(=O)[C@H](CC(N)=O)NC(=O)c1ccc(F)cc1)C(C)C)C(=O)N[C@@H](CCC(N)=O)C(=O)N[C@H](C(=O)N[C@@H](CC(C)C)C(=O)N[C@@H](C)C(=O)N[C@@H](CCC(N)=O)C(=O)N[C@@H](CCCCN)C(=O)N[C@H](C(=O)N[C@@H](C)C(=O)N[C@@H](CCCNC(=N)N)C(=O)N[C@H](C(=O)NCCOCCOCCOCCOCCOCCOCCOCCOCCOCCOCCOCCOCCOCCOCCOCCOCCOCCOCCOCCOCCOCCOCCOCCOCCOCCOCCOCCOCCC(N)=O)[C@@H](C)O)C(C)C)C(C)C [fluorine-18 labelled]			female athymic nude mouse, lung	intravenous, range over all time points		lung uptake	2 to 3 %ID/g
C[C@@H]1Cc2c(Cl)cc(C(=O)N[C@@H](Cc3ccccc3)C(=O)O)c(O)c2C(=O)O1			chicken embryo	in ovo injection, 0.25 µg/egg		body weight to egg weight ratio	72.3 ± 2.9
CC(C)(C)[C@H](NC(=O)C(F)(F)F)C(=O)N1C[C@H]2[C@@H]([C@H]1C(=O)N[C@H](C#N)C[C@@H]1CCNC1=O)C2(C)C			human, fasted	oral, 150 mg single dose, 28 days, no ritonavir		participants with adverse events	0%
CC[C@H](C)[C@H](NC(=O)[C@H](CC(C)C)NC(=O)[C@H](Cc1c[nH]c2ccccc12)NC(=O)[C@H](CCC(N)=O)NC(=O)[C@@H](NC(=O)[C@H](Cc1ccccc1)NC(=O)[C@H](C)NC(=O)[C@H](CCCCNC(=O)COCCOCCNC(=O)COCCOCCNC(=O)CC[C@H](NC(=O)CCCCCCCCCCCCCCCCCCC(=O)O)C(=O)O)NC(=O)[C@H](CCC(N)=O)NC(=O)[C@H](C)NC(=O)[C@@H](NC(=O)[C@H](CCCCN)NC(=O)[C@H](CC(=O)O)NC(=O)[C@H](CC(C)C)NC(=O)C(C)(C)NC(=O)[C@@H](NC(=O)[C@H](CO)NC(=O)[C@H](Cc1ccc(O)cc1)NC(=O)[C@H](CC(=O)O)NC(=O)[C@H](CO)NC(=O)[C@@H](NC(=O)[C@H](Cc1ccccc1)NC(=O)[C@@H](NC(=O)CNC(=O)[C@H](CCC(=O)O)NC(=O)C(C)(C)NC(=O)[C@@H](N)Cc1ccc(O)cc1)[C@@H](C)O)[C@@H](C)O)[C@@H](C)CC)[C@@H](C)CC)C(C)C)C(=O)N[C@@H](C)C(=O)NCC(=O)NCC(=O)N1CCC[C@H]1C(=O)N[C@@H](CO)C(=O)N[C@@H](CO)C(=O)NCC(=O)N[C@@H](C)C(=O)N1CCC[C@H]1C(=O)N1CCC[C@H]1C(=O)N1CCC[C@H]1C(=O)N[C@@H](CO)C(N)=O			human end-stage renal disease on dialysis, plasma	subcutaneous, 5 mg single, geometric mean		AUC(0-last)	88500 ng·h/mL
Cn1cnc(Cn2c(=O)[nH]/c(=N\c3cc4cn(C)nc4cc3Cl)n(Cc3cc(F)c(F)cc3F)c2=O)n1			human, moderate renal impairment, plasma	oral, 375 mg single dose		MRT	87.5 h
CNC(=O)[C@@H](NC(=O)[C@H](CC(C)C)[C@H](O)C(=O)NO)C(C)(C)C	human fibrinogen	SDS-PAGE	Daboia russelii	concentration not given, unit not given, added: MH venom	relative to: untreated fibrinogen	remaining fibrinogen γ chain	0.436
CCOP(=S)(OCC)Oc1nc(Cl)c(Cl)cc1Cl	rat CYP2C	tolbutamide hydroxylation, non-competitive inhibitor	rat Sprague-Dawley, liver microsomes	30 min, pH 7.4, added: tolbutamide 1 to 10 mM		Ki	84.8 ± 19.4 µM
tricresyl phosphate	KCNH2 (Homo sapiens, UniProt Q12809)	thallium flux, inhibitor	hERG transduced cells			IC50	9.7 ± 1.6 µM
CC[C@H](C)[C@H](NC(=O)[C@H](CC(C)C)NC(=O)[C@H](Cc1c[nH]c2ccccc12)NC(=O)[C@H](CCC(N)=O)NC(=O)[C@@H](NC(=O)[C@H](Cc1ccccc1)NC(=O)[C@H](C)NC(=O)[C@H](CCCCNC(=O)COCCOCCNC(=O)COCCOCCNC(=O)CC[C@H](NC(=O)CCCCCCCCCCCCCCCCCCC(=O)O)C(=O)O)NC(=O)[C@H](CCC(N)=O)NC(=O)[C@H](C)NC(=O)[C@@H](NC(=O)[C@H](CCCCN)NC(=O)[C@H](CC(=O)O)NC(=O)[C@H](CC(C)C)NC(=O)C(C)(C)NC(=O)[C@@H](NC(=O)[C@H](CO)NC(=O)[C@H](Cc1ccc(O)cc1)NC(=O)[C@H](CC(=O)O)NC(=O)[C@H](CO)NC(=O)[C@@H](NC(=O)[C@H](Cc1ccccc1)NC(=O)[C@@H](NC(=O)CNC(=O)[C@H](CCC(=O)O)NC(=O)C(C)(C)NC(=O)[C@@H](N)Cc1ccc(O)cc1)[C@@H](C)O)[C@@H](C)O)[C@@H](C)CC)[C@@H](C)CC)C(C)C)C(=O)N[C@@H](C)C(=O)NCC(=O)NCC(=O)N1CCC[C@H]1C(=O)N[C@@H](CO)C(=O)N[C@@H](CO)C(=O)NCC(=O)N[C@@H](C)C(=O)N1CCC[C@H]1C(=O)N1CCC[C@H]1C(=O)N1CCC[C@H]1C(=O)N[C@@H](CO)C(N)=O			human, plasma	subcutaneous, 10.0 mg once weekly, week 15, multiple doses		Tmax	24 h
Nc1ncnc2c([C@@H]3N[C@H](CO)[C@@H](O)[C@H]3O)c[nH]c12	Zaire ebolavirus	viral replication, inhibitor	human Macrophage	6.3 µM		inhibition	0%

For quick reference, copied from above:
Molecule	target or system	test	system	conditions	scale	measurement	result
CC[C@H](C)[C@H](NC(=O)[C@H](CC(C)C)NC(=O)[C@H](Cc1c[nH]c2ccccc12)NC(=O)[C@H](CCC(N)=O)NC(=O)[C@@H](NC(=O)[C@H](Cc1ccccc1)NC(=O)[C@H](C)NC(=O)[C@H](CCCCNC(=O)COCCOCCNC(=O)COCCOCCNC(=O)CC[C@H](NC(=O)CCCCCCCCCCCCCCCCCCC(=O)O)C(=O)O)NC(=O)[C@H](CCC(N)=O)NC(=O)[C@H](C)NC(=O)[C@@H](NC(=O)[C@H](CCCCN)NC(=O)[C@H](CC(=O)O)NC(=O)[C@H](CC(C)C)NC(=O)C(C)(C)NC(=O)[C@@H](NC(=O)[C@H](CO)NC(=O)[C@H](Cc1ccc(O)cc1)NC(=O)[C@H](CC(=O)O)NC(=O)[C@H](CO)NC(=O)[C@@H](NC(=O)[C@H](Cc1ccccc1)NC(=O)[C@@H](NC(=O)CNC(=O)[C@H](CCC(=O)O)NC(=O)C(C)(C)NC(=O)[C@@H](N)Cc1ccc(O)cc1)[C@@H](C)O)[C@@H](C)O)[C@@H](C)CC)[C@@H](C)CC)C(C)C)C(=O)N[C@@H](C)C(=O)NCC(=O)NCC(=O)N1CCC[C@H]1C(=O)N[C@@H](CO)C(=O)N[C@@H](CO)C(=O)NCC(=O)N[C@@H](C)C(=O)N1CCC[C@H]1C(=O)N1CCC[C@H]1C(=O)N1CCC[C@H]1C(=O)N[C@@H](CO)C(N)=O			human end-stage renal disease on dialysis, plasma	subcutaneous, 5 mg single, geometric mean		AUC(0-last)	88500 ng·h/mL
Cn1cnc(Cn2c(=O)[nH]/c(=N\c3cc4cn(C)nc4cc3Cl)n(Cc3cc(F)c(F)cc3F)c2=O)n1			human, moderate renal impairment, plasma	oral, 375 mg single dose		MRT	87.5 h
